Measurements pooled from the literature.
Numbered parts are unrelated; each lists some results of a single study.

Sample 1
Target: Centromere-binding protein 1, full length, His-tagged (CBF1, Saccharomyces cerevisiae, UniProt P17106, residues 1-351)
Chain of UniProt P17106 (whole entry, looked up): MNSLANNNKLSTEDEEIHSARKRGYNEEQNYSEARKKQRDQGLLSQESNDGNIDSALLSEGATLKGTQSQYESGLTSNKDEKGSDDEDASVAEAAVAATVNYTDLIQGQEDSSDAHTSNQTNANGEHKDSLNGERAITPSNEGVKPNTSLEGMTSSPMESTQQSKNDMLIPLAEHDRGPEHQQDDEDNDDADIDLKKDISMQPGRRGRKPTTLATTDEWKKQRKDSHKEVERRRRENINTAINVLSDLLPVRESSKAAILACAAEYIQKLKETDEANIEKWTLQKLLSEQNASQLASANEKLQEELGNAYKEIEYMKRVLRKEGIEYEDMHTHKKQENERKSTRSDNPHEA
Method: competition protein-binding microarray
Molecule type: double-stranded DNA, one strand shown
Matrix: in vitro
Concentration: 2 µM
Notes: whole 60-bp probe, lowest competitor level
With: Pho4 competitor, 0.05 µM
Reading: higher = stronger binding
| Strand | fluorescence intensity [a.u.] |
| --- | --- |
| CTTTGCTCCATACAGCATGTGGAGCAGGCGTACTTGGTCTTGATTCGCTTGACGCTGCTG | 66.4 |
| AACGCCGTCCGTAACCATATGATTCACAATTTGATCGTCTTGATTCGCTTGACGCTGCTG | 126 |
| CTAAAGTATATGACTCACGTGGTCGAAAGAAAGCGGGTCTTGATTCGCTTGACGCTGCTG | 3010 |

Sample 2
Target: Sal-like protein 4, full length isoform B (SALL4, Homo sapiens, UniProt Q9UJQ4-2, residues 1-616)
Method: universal PBM
Molecule type: double-stranded DNA, one strand shown
Matrix: in vitro
Concentration: not given
Notes: 8-mer, flanks averaged, mean of replicates
Reading: higher = stronger binding
| Strand | E-score |
| --- | --- |
| GAGATACC | -0.127 |
| GGTTGAAA | 0.0634 |
| CCTTAATC | 0.0482 |

Single results of other studies
G3BP1 full length: Ras GTPase-activating protein-binding protein 1, full length (G3BP1, Homo sapiens, UniProt Q13283)
Chain of UniProt Q13283 (whole entry, looked up): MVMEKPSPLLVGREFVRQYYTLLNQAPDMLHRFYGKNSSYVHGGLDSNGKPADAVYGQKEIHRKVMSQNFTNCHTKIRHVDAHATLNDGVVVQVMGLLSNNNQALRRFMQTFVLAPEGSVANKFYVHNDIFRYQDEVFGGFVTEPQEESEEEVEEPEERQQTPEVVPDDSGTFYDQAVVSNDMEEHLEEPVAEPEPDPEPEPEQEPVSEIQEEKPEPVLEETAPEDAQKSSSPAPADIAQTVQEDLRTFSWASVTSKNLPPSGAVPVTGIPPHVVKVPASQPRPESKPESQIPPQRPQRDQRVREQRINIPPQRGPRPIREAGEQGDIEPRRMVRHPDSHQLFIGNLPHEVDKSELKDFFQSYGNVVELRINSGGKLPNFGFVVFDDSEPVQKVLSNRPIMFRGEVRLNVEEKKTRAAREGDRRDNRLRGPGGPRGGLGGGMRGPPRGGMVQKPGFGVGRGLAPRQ
| Substance | target | assay | system | setting | scale | measurement | value |
| --- | --- | --- | --- | --- | --- | --- | --- |
| GGGAGUUCUACAGUCCGACGAUCGCAGGAAGUAAAAACAAAUGGAAAUGCUUCGGAUAGUGGCAGGGGUGAGGGUUGCUAAGGAAAGGGUGGGAUGGGAGUGGGUAAAGAGUUUGGAAUUCUCGGGUGUCAAGG | G3BP1 full length | RNA Bind-n-Seq | RNA, in vitro | 200 nM, whole 134-nt RNA, ends assumed, with: 150 mM KCl | baseline: input library, higher = stronger binding | log2 enrichment | 1.11 |
| PhoQ, residues 284 288 289 292 302 303 NSMLDC | PhoP, residues 12 14 15 18 19 NFCKL (Escherichia coli, UniProt P23836) | Sort-seq, item: YFP reporter | E. coli | PhoQ-PhoP variant library, with: 10 µM Mg2+ | baseline: high Mg2+ state, higher = stronger signaling | fold induction | 15.2 |
| GGGAGUUCUACAGUCCGACGAUCAGUCCUGUGCUACACAUCGUAUGUACCGAAUCGGGCCCCGGGGCCCCGGGCCCCGGGAAAGUAUUAUGUUACGCCGUUCGGAUCUGCACUUGGAAUUCUCGGGUGUCAAGG | G3BP1 full length | RNA Bind-n-Seq | RNA, in vitro | 200 nM, whole 134-nt RNA, ends assumed, with: 150 mM KCl | baseline: input library, higher = stronger binding | log2 enrichment | -1.13 |

Some of these lines once more (sample 2):
| Strand | E-score |
| --- | --- |
| GGTTGAAA | 0.0634 |
